Experimental data pooled from the literature.
Numbered parts are unrelated; each lists some results of a single study.

Study 1 — method: RNA Bind-n-Seq; molecule type: RNA; medium: in vitro; tested at: 365 nM; reference: no-protein control; direction: higher = stronger binding
Target: RNA binding protein fox-1 homolog 2, RRM domain, GST-SBP tag (RBFOX2, Homo sapiens, UniProt O43251-10, residues 100-194)
Notes: natural RNA segment, single round, ends assumed
Residues (chain): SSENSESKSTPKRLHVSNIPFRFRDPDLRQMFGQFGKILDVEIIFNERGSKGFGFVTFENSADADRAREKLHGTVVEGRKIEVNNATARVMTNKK
For `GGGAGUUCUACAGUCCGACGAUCUAUCAUGUCAACCUGGCUUAUCAUUGUGAGCCCCUGAGGUCUUUCGGGUUCUCUGUAAUACUCAAGUCCUCUCUCAUUCUUACCUACCUCGACUCUUGAGAGGGAGGCUUUGGAAUUCUCGGGUGCCAA`, “RBNS enrichment (R)” read 0.357.
`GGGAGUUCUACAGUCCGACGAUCGUUUUUACUUUUUUAAUGUAAGUCUGAGUCUUUGUAAUUAUUGAAUUGUGAGAACAAUUUUGAACAAUUUACCUGUCAAUAAAGCAGAAGGCAGCAGUUUUAAAGUUCUCUGGAAUUCUCGGGUGCCAA`: “RBNS enrichment (R)” 0.447.
`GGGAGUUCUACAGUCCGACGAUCCUGGUUGUUUCUGGUAUAGCUGUGCCACGAGAGCCCAGCUUGCUGUUGCUGCGGCCCUGGGGUUUAACCUCUUCCUGCCAGGAGCGGGACUAAUGCGCCGGGAAGGCUGGUGGAAUUCUCGGGUGCCAA`: “RBNS enrichment (R)” 0.568.
Under “RBNS enrichment (R)”, `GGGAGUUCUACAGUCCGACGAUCGUAGCUCUAGGAAAAGAGGUUUUAUUUUGUAAACGAUCAUUUGUGACCUCAGACACUCUCUGGCUAAUAUUUUAAUAAGCUCACAGCAGAUAAUUCUGAGAUCAUGGGUGUGGAAUUCUCGGGUGCCAA` is recorded as 0.421.
`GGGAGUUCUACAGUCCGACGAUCUAUGUUUUCCAUUUUCUUUUGUCAGAGGUGAGCUUGAAUGUGAUUAUCUGUAAAUUUGCUCAAAUAAUAAGAUAAUGUACAACACUAAUAGCCAGAUAUGAGUUUAAACUUGGAAUUCUCGGGUGCCAA` — result for “RBNS enrichment (R)”: 0.943.
`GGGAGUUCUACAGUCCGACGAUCCACUACAGGAUAUGAUCUCCAUGUAGUCCAUAUAAACCUGCAGAGUGAUUUUCCAGAGUGCUCGAUACUGUUAAUUACAUCUCCAUUAGGGCUGAAAAGAAUGACCUACGUGGAAUUCUCGGGUGCCAA` — result for “RBNS enrichment (R)”: 0.836.
For `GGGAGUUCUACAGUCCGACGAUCUUUUGCACUCAGCUUAUUACAGGUAGGUAGUGCUUAAGAAAAGUCAUGGAGGACUAAAGCCUAAGUCCUUUUCACUUUUCCUCCAUCUGAAGGUAGGUGAGUUCAUCCUCUGGAAUUCUCGGGUGCCAA`, “RBNS enrichment (R)” read 0.233.
Under “RBNS enrichment (R)”, `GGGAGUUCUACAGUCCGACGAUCAGGUCUGUCACUAGGCAGGAAACCAUGUAGGUAAGUGUAGGACCUGCUUUGCUUAGCCACUACUGGAUUUGUUUGGCUGGCCACUGGGUGGCAGCAUAGGUUCUAAUUUUUGGAAUUCUCGGGUGCCAA` is recorded as 0.485.

Study 2 — method: protein binding microarray; molecule type: double-stranded DNA, one strand shown; medium: in vitro; tested at: not given; reference: not given; direction: higher = stronger binding
Target: Histone acetyltransferase KAT6A, winged helix 2, GST fusion (KAT6A, Homo sapiens, UniProt Q92794, residues 85-181)
Notes: 8-mer, flanks averaged, mean of 2 arrays, mostly near background
Residues (chain): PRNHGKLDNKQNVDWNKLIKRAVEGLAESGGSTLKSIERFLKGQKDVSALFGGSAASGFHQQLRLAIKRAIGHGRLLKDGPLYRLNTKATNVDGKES
With `ACATCCCT` the E-score was 0.0741.
The E-score of `ATTATGCC` is reported as 0.15.
For `CACCCTCC`, the E-score was 0.143.
For `CTCATCAG`, the E-score was 0.0815.
For `AGTGCGAG`, the E-score was 0.0798.
With `CAAGACAC` the E-score was 0.131.
The E-score of `CGAGACGA` is reported as -0.156.
With `ATAACCAT` the E-score was -0.183.
For `GGGTCAGA`, the E-score was -0.0212.
For `ACATGTAG`, the E-score was -0.162.
The E-score of `AACGGCGA` is reported as 0.215.
For `GCCAAGAA`, the E-score was 0.0313.
`AGGGCGAG` gave an E-score of -0.044.
`ACTGCATA` gave an E-score of 0.0841.
For `ACCAATAA`, the E-score was 0.00208.
`CATAGTCG` has an E-score of -0.0607.
`CGACTGTC` gave an E-score of -0.143.
`CCCCAAGA` has an E-score of 0.00881.
`CATCAGGC` has an E-score of 0.00254.
For `CGCTCACA`, the E-score was 0.0558.
`ACTTCCAA` has an E-score of -0.188.
With `GGATTTGA` the E-score was -0.0219.
`GACTACTA` gave an E-score of -0.0781.
For `CGACGCGA`, the E-score was 0.127.
The E-score of `AGTTAGAA` is reported as 0.076.

Study 3 — method: RNA Bind-n-Seq; molecule type: RNA; medium: in vitro; tested at: 200 nM; notes: whole 134-nt RNA, ends assumed; together with: 150 mM KCl; reference: input library; direction: higher = stronger binding
Target: Ras GTPase-activating protein-binding protein 1, full length (G3BP1, Homo sapiens, UniProt Q13283)
Sequence of UniProt Q13283 (whole entry, looked up): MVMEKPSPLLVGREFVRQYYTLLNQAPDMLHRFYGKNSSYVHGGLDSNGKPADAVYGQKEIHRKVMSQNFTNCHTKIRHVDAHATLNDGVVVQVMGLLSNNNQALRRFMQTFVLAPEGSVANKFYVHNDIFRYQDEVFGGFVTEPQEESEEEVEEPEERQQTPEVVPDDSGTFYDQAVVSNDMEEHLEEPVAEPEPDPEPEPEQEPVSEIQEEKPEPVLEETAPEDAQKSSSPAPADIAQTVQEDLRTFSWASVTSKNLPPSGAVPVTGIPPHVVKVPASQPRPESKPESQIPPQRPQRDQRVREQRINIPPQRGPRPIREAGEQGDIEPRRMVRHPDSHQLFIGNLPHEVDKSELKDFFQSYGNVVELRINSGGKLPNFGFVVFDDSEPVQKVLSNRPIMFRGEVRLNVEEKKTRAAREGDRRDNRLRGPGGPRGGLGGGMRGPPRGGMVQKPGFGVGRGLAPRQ
`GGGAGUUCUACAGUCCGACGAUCGCAGGAAGUAAAAACAAAUGGAAAUGCUUCGGAUAGUGGCAGGGGUGGGGGUUGCUAAGGAAAGGGUGGGAUUGGAGUGGGUAAAGAGUUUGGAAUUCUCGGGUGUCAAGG` has a log2 enrichment of 0.769.
`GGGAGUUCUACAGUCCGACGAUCUGGCCCUGGGGGCAUGCGGGGAGGAAGAGGUGGCCUCAUGGAUCGUGGUGGUCCCGGUGGAAUGUUCAGAGGUGGCCGUGGUGGAGACAGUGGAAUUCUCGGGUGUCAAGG` gave a log2 enrichment of 0.143.
`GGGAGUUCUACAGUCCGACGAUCCCUCAAGUCCUGUGCUACACAUCGUAUGUACCGAAUCGGGCCGGGCCGGCCGGAAAGUAUUAUGUUACGCCGUUCGGAUCUGCACUUCCAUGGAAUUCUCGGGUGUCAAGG` gave a log2 enrichment of -0.246.
With `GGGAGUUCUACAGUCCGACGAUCACCAUGCAGGUGGGCAUCUUUGGGAAGUGGGGCAAGGGGGGGAUAGGGAAAGGGGUAACACUUUGGGAACAGGUGGUCCCAGGUCGUUUCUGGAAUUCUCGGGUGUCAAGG` the log2 enrichment was 1.12.
With `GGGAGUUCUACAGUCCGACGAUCUCCUGUGCUACACAUCGUAUGUACCGAAUCGGGUUUUUUGGUUUUUUGGGGUUUUUUGGGAAAGUAUUAUGUUACGCCGUUCGGAUCUGCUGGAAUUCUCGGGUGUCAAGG` the log2 enrichment was -0.373.
For `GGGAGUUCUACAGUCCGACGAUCGGCGGAGCAGCUGAUGGAGGAGUGGAACGAAGACCUAGACGGCAUGGAGGGUUUCGUGCUGGAGGGCAAGAAGUUUGCGCGGCUGCCGGAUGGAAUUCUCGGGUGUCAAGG`, the log2 enrichment was -0.735.
For `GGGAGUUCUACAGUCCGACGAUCCAAGUCCUGUGCUACACAUCGUAUGUACCGAAUCGGGGCCCCGGCCCCGGCCCCGGAAAGUAUUAUGUUACGCCGUUCGGAUCUGCACUUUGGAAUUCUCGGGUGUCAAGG`, the log2 enrichment was -0.835.
`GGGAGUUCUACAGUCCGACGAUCUGUGCUACACAUCGUAUGUACCGAAUCGGGAAAAAAAGGGGAAAAAAAGGGAAAAAAAGGGGAAAGUAUUAUGUUACGCCGUUCGGAUCUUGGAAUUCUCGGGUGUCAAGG` gave a log2 enrichment of -0.552.
`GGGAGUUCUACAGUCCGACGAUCGCAGGAAGUAAAAACAAAUGGAAAUGCUUCGGAUAGUGGCAGGGGUGGGGGUUGCUAAGGAAAGGGUGGGAUGGGAGUGGCUAAAGAGUUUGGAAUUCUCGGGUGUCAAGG` gave a log2 enrichment of 0.885.

Study 4 — method: protein-binding microarray; molecule type: double-stranded DNA, one strand shown; medium: in vitro; tested at: 940 nM top; notes: 60-bp whole probe; together with: salmon DNA 0.4 mg/ml; reference: random background probes; direction: higher = stronger binding; shared flanks, not repeated: GCCTAGCAC … GTCTTGATTCGCTTGACGCTGCTG
Target: Interferon regulatory factor 5, full length, phosphomimetic (IRF5, Homo sapiens, UniProt Q13568-2, residues 1-514, S451D/S453D/S456D/S462D)
`TCATCACTCAATCTCAAACTGTGCTAG`: “fitted relative affinity” 0.699 z-score.
`TTAGGTAGCGGTATCGGTTAGTGCTAG`: “fitted relative affinity” 4.55 z-score.
`TTAGGTATCCGTTTCCTTTAGTGCTAG` — result for “fitted relative affinity”: 1.44 z-score.
For `GACGGTCTCGGTTTCGGGATGTGCTAG`, “fitted relative affinity” read 6.57 z-score.
`GACGAACTGGGTATCGAGACGTGCTAG` — result for “fitted relative affinity”: 1.11 z-score.
For `TCAGCTTCCCAATTCTCACTGTGCTAG`, “fitted relative affinity” read 0.938 z-score.
`TTCAATTCCTGAAATCTCTTTGTGCTA` — result for “fitted relative affinity”: 0.779 z-score.
For `TACTCTCCAGGGTTTCTCTTTGTGCTA`, “fitted relative affinity” read 1.39 z-score.
`TTACGTTTCGACTTTCGGTTAGTGCTA` — result for “fitted relative affinity”: 6.4 z-score.
For `TCATTTTCATTGTTTTTCACTGTGCTA`, “fitted relative affinity” read 2.3 z-score.
`TCACATCTCATATAAATAACTGTGCTA` — result for “fitted relative affinity”: 0.704 z-score.
Under “fitted relative affinity”, `TTAGGACTGTTTATCCTTTAGTGCTAG` is recorded as 0.1 z-score.
`TCATTTTTCTAAACCATACTGTGCTAG` — result for “fitted relative affinity”: 0.997 z-score.
`TTAGGATTGGGTTTCGGTTAGTGCTAG`: “fitted relative affinity” 8.11 z-score.
`TCACTTATGATATATATAACTGTGCTA` — result for “fitted relative affinity”: 0.728 z-score.
`TTAGAACTGGGGTATCGAGTAGTGCTA`: “fitted relative affinity” 1.04 z-score.
For `GAAGATTTCAGTCTCGAGACGTGCTAG`, “fitted relative affinity” read 1.6 z-score.
Under “fitted relative affinity”, `TTAGAGTTCAGACTGGATTAGTGCTAG` is recorded as -0.502 z-score.
`GACGGTATCGACACTGGGGAAGTGCTA`: “fitted relative affinity” 4.06 z-score.

A few entries again (study 4):
For `TCATTTTCATTGTTTTTCACTGTGCTA`, “fitted relative affinity” read 2.3 z-score.
Under “fitted relative affinity”, `TTAGAGTTCAGACTGGATTAGTGCTAG` is recorded as -0.502 z-score.
For `GAAGATTTCAGTCTCGAGACGTGCTAG`, “fitted relative affinity” read 1.6 z-score.
